Experimental data gathered from unrelated publications.
Each numbered part is a random draw from the data of one study; scales do not carry over between parts. Positions count from the first letter of the parent shown.

Study 1
Target: RING finger protein unkempt homolog, zinc fingers 1-6, GST-SBP tag (UNK, Homo sapiens, UniProt Q9C0B0, residues 30-357)
Chain of UniProt Q9C0B0 (30-357, looked up): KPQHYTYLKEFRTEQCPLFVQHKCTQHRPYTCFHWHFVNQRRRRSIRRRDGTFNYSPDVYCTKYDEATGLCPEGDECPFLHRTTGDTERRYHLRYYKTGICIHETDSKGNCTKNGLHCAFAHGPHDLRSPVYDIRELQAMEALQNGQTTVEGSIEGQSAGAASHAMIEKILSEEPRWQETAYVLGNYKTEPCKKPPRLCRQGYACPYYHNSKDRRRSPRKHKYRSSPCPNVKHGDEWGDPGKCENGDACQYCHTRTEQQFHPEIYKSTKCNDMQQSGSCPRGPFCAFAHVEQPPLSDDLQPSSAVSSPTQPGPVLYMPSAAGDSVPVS
Technique: RNA Bind-n-Seq
Form: RNA
Medium: in vitro
Tested at: not given
Notes: RNA with constant flanks, ends assumed
Baseline: input RNA pool
Direction: higher = stronger binding
Shared flanks, not repeated: GGGAGUUCUACAGUCCGACGAUC … CAACAGAGGAUUGAGCAUCA
Strand | bound/input enrichment
ACGUUUUUAUGGUCCCCUAUGCCUGAACAUUAUGUGGAAGGAUCAACAGUCAAUUGUGUACCCGCAUUCCAAGGAUAUUACCUUCCAAAUGAUGAUGGAGAAUUUUAUCAGUUCUGUUAC | 0.163 ratio
AAAGAUUGAUCUGUGGGCUGGUGAACUUAUCUGGGUCCCAGUCCGAGCAGCAGAGGAGAUCCGCACAGCGCUUGCUGGAGAAUGAUAUCUGUCAAAAGAAACACUUGGAGAGCACUGAGU | 0.103 ratio
AUAUACUAUUUAUUAUAGCAUUUUGAUACCUCAUUCCGUUUACACAUCUCAAAAGCCGCUCCGUAAUUCUCUUAUUAUUUAAAGAACCACUACACUAGAGAAUGGAAUCUACUGUGGCAA | 0.44 ratio
GACCAGACUCCAAAAUGGAAACCAGCCAAUCUAAAAGAUGUUACGGAUGAAGACUUGAACCGUUACUUUAAAUCUCUGGGAAGCAGUGAUUUGAAAUUCUAAAGUUUAUUUUGGAGCAAA | 0.13 ratio
CCAAAAGCAGUAGUUUCUCCUCCUAAGUUUGUAUUUGGCUCAGAAUCUGUUAAAAGCAUUUUCCGCCGUGAAAAAUCCAAGCCAUUUGCAUUUGGCAACAGUUCAGCCACUGGUUCUUUG | 0.168 ratio
UUGUUAAAAUGCUAUUUCCUUUAUUACCUUGGAAACUGACUCAGCCUCAUGUUGCUCCUAAUCCGUGUUUAAGGCUCCCAUGAGUUGCAGAUAAAAUGAUUUAUUUUAACAAGUAGAAGG | 0.861 ratio
UCCACCUCAAGGUCUUUGCAAAGCCCAAAAUCACCUAUGUAGAGAAUCAGACGGCCAUGGAACCCGAGGAGCAAGUCACUCUGACCUGUGAAGCCUCCGGAGACCCCAUCCCCUCCAUCA | 0.0778 ratio
AUGGUUGAACUCAACGGAAAUCAGCCCAUGGAGAUCAAAGUCCUGGGUCCUUAUACCUUCCGCAUCUGUGACACCUCCAACUUCUCCGACUACAUCCGUGGAGGCAUCGUCAGUCAGGUC | 0.124 ratio

Study 2
Molecule: HSPD1 (Homo sapiens, UniProt P10809)
Technique: cross-linking MS
Medium: cell fractions
partner | conditions | cross-linked residues
RTN4 (Homo sapiens, UniProt Q9NQC3) | added: DSSO | K236 to K501
IRF2BPL (Homo sapiens, UniProt Q9H1B7) | added: DHSO | D423 to E356
MED13L (Homo sapiens, UniProt Q71F56) | added: DSSO | K364 to K478
MDH2 (Homo sapiens, UniProt P40926) | added: DSSO | K156 to K307
PYCR2 (Homo sapiens, UniProt Q96C36) | added: DSSO | S70 to K283
DNAH2 (Homo sapiens, UniProt Q9P225) | added: DHSO | D100 to E3289

Further values, each from its own experiment
P1: viral docking peptide; TSVRRALFTGGSD; partner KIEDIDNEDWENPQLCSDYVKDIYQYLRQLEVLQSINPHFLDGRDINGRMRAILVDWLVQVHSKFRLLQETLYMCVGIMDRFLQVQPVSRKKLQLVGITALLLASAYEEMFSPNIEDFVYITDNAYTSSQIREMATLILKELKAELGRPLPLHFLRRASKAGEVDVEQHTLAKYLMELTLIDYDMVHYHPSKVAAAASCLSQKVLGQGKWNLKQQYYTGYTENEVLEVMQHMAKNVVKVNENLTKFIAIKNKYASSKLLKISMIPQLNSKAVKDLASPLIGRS
Molecule | target | assay | system | conditions | how to read | endpoint | result
P1 S12Q | CCNB2, cyclin fold, Cln2 fusion (human) | yeast growth competition, sequencing | yeast | strong parent motif | baseline: not given, higher = stronger binding | normalised enrichment score | 0.778
RLDARLQVL | HLA class I histocompatibility antigen, A alpha chain, allele A*80:01 (Homo sapiens, UniProt P04439) | peptide-MHC binding | peptide | concentration not given | – | binding | inactive

Excerpt of the above (study 1):
Strand | bound/input enrichment
CCAAAAGCAGUAGUUUCUCCUCCUAAGUUUGUAUUUGGCUCAGAAUCUGUUAAAAGCAUUUUCCGCCGUGAAAAAUCCAAGCCAUUUGCAUUUGGCAACAGUUCAGCCACUGGUUCUUUG | 0.168 ratio
UUGUUAAAAUGCUAUUUCCUUUAUUACCUUGGAAACUGACUCAGCCUCAUGUUGCUCCUAAUCCGUGUUUAAGGCUCCCAUGAGUUGCAGAUAAAAUGAUUUAUUUUAACAAGUAGAAGG | 0.861 ratio
